Measured values of several laboratories.
Compare with care: the assays were run in different laboratories. ± gives the spread as reported.
RAD52: DNA repair protein RAD52 homolog (RAD52, Homo sapiens, UniProt P43351)
Chain of UniProt P43351 (whole entry, looked up): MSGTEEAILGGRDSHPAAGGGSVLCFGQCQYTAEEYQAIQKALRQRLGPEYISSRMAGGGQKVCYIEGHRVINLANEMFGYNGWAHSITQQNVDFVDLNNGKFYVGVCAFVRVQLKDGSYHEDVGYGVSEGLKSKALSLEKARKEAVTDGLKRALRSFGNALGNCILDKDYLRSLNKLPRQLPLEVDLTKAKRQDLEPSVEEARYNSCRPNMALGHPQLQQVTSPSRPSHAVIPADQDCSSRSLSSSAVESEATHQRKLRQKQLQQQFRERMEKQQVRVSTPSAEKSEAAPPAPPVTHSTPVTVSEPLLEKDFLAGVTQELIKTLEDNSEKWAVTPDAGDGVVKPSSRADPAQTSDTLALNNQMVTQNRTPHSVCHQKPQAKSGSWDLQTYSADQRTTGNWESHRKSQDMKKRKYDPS
DRD3: D(3) dopamine receptor (DRD3, Homo sapiens, UniProt P35462)
Chain of UniProt P35462 (whole entry, looked up): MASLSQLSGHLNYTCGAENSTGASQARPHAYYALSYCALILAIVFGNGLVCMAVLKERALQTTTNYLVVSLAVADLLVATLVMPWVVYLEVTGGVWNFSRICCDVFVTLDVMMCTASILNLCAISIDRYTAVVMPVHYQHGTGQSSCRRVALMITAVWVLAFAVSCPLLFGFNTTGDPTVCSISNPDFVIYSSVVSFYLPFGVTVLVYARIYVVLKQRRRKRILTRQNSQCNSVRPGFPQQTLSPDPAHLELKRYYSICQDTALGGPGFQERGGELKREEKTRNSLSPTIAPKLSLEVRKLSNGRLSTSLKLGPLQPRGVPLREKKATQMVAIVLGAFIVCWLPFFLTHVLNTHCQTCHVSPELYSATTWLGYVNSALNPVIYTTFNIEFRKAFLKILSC
Ugcg: Ceramide glucosyltransferase (Ugcg, Mus musculus, UniProt O88693)
Chain of UniProt O88693 (whole entry, looked up): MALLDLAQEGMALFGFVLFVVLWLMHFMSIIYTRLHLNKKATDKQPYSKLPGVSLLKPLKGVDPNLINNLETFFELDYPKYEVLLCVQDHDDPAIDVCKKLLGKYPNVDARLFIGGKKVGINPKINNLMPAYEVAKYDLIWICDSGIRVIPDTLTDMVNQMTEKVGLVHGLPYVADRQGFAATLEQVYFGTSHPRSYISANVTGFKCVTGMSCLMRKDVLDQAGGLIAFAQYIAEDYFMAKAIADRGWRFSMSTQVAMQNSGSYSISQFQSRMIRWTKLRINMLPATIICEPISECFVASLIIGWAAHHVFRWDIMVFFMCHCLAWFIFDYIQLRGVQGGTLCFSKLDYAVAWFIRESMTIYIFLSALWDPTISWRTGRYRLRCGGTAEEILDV
Chain of UniProt P07550 (whole entry, unmodified, looked up): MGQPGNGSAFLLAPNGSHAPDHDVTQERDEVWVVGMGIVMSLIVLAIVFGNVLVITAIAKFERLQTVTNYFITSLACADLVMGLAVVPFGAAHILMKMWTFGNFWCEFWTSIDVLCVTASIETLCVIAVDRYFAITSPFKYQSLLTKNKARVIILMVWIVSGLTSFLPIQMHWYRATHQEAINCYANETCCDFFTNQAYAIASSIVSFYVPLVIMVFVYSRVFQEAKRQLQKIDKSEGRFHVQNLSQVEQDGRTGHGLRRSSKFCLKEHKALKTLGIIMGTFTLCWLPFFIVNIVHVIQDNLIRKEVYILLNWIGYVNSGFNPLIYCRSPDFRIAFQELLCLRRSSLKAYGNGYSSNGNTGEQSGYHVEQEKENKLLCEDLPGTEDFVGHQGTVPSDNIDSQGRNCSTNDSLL
Chain of UniProt Q9H5I1 (whole entry, looked up): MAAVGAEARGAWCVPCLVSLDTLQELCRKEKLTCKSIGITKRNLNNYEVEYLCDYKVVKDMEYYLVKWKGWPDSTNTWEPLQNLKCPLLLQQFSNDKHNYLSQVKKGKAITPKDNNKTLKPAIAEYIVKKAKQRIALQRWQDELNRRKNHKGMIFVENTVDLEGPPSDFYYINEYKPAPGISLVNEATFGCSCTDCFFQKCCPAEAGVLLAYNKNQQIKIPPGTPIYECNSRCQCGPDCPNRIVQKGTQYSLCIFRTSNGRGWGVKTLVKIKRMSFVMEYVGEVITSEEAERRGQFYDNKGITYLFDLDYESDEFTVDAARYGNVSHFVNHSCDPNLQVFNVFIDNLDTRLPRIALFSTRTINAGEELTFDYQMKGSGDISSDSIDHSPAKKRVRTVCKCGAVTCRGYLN
Chain of UniProt Q16512 (whole entry, looked up): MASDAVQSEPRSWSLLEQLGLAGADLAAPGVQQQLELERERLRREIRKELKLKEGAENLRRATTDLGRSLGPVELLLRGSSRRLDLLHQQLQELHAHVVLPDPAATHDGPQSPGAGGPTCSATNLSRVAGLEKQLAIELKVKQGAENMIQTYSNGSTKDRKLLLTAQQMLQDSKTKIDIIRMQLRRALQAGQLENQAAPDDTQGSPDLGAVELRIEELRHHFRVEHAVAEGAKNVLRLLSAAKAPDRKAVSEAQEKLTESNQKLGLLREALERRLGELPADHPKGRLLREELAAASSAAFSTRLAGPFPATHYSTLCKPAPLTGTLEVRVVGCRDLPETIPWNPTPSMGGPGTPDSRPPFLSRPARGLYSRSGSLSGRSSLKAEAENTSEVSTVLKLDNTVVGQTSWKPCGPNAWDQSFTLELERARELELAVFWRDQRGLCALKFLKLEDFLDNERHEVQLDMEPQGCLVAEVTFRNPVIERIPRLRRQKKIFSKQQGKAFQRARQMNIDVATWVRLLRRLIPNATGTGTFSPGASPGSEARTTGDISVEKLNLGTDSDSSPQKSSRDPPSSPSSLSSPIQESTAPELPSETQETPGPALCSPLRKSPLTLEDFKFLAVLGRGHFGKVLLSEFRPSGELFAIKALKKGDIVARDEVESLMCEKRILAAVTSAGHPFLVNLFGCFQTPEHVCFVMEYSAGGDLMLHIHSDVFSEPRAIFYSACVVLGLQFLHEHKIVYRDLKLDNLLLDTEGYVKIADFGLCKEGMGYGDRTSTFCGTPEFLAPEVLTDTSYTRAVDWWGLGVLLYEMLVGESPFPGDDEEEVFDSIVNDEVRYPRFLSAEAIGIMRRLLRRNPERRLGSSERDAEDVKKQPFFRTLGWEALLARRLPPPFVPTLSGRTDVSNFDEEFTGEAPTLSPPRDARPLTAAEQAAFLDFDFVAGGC
Chain of UniProt P30837 (whole entry, looked up): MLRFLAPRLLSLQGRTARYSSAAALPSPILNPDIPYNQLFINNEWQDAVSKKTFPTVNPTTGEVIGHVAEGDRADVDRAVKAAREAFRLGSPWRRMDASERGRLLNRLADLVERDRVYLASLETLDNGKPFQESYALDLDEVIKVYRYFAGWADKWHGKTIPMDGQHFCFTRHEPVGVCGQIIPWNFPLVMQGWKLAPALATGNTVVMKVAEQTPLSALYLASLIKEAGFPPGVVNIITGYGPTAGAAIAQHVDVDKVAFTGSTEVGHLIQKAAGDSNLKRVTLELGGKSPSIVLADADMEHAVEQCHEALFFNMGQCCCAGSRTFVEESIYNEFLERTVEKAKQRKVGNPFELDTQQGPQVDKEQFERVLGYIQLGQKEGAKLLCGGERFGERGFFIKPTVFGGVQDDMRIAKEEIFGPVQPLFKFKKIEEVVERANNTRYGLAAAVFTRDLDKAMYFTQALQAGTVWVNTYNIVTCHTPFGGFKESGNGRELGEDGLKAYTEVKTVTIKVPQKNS
Chain of UniProt P35354 (whole entry, looked up): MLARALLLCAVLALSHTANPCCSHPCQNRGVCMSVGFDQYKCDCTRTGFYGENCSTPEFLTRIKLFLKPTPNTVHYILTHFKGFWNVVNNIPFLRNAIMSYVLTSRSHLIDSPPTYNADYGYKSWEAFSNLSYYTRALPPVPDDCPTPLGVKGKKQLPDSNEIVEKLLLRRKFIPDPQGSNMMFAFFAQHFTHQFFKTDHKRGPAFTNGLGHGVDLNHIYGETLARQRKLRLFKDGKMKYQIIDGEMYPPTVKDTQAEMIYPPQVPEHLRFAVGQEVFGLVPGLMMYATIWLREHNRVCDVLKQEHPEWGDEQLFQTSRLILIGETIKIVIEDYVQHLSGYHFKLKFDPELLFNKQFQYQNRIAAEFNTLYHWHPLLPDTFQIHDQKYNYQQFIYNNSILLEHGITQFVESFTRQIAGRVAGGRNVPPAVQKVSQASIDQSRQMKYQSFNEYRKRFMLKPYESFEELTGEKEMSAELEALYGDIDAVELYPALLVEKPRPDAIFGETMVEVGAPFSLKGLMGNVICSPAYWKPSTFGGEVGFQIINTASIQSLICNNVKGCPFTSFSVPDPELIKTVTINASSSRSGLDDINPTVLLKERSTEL
Chain of UniProt O96017 (whole entry, looked up): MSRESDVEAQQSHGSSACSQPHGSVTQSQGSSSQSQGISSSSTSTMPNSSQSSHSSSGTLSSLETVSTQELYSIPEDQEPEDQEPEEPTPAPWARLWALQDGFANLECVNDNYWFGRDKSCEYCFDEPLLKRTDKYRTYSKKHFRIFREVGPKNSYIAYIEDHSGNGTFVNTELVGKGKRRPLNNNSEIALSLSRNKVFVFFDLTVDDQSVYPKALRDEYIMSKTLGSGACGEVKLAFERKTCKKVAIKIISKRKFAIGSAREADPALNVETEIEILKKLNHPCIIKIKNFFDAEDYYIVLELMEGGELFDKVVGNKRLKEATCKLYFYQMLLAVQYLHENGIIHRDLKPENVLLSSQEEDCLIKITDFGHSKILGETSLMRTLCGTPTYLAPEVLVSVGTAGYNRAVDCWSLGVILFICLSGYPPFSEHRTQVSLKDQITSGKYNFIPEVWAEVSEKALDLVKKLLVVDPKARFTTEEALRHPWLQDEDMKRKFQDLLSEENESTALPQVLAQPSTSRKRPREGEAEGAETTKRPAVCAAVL
Chain of UniProt O95319 (40-212, looked up): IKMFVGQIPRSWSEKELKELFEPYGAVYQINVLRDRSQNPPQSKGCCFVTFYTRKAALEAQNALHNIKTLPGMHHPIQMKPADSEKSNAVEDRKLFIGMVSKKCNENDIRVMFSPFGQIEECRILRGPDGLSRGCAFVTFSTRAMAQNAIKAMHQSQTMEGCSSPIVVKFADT

SMILES = CS(=O)(=O)Nc1cccc(-c2csc3cnc(Nc4ccc(N5CCN(CCCCCOc6cccc7c6C(=O)N(C6CCC(=O)NC6=O)C7=O)CC5)cc4)nc23)c1 (centres unmarked); target = NEK9 (Homo sapiens, UniProt Q8TD19); assay = enzyme activity, inhibitor, FRET; IC50 = 39 nM
SMILES = COc1ccc(OC)c(Nc2nc(NCCO)c3ccccc3n2)c1; target = RAD52; assay = ssDNA annealing, fluorescence quenching; IC50 = 4300 nM
SMILES = OC[C@@H]1[C@@H](O)[C@H](O)[C@@H](O)c2nccn21; target = GAA (Homo sapiens, UniProt P10253); setting = pH 4.8; IC50 = > 100000 nM
SMILES = COc1cc(O)ccc1-c1c[nH]c2ncc(-c3cncc(C(=O)N(C)C)c3)cc12; target = ABL1 (Homo sapiens, UniProt P00519); assay = kinase activity, inhibitor, HTRF; setting = 1 h preincubation, added: ATP 20 µM; IC50 = 2.4 ± 0.8 nM
SMILES = CNCc1ccc2c(c1)N(C(=O)OCCC(F)(F)F)[C@H](CNC(=N)N)[C@H]2NC(=O)C(=O)Nc1ccc(Cl)c(F)c1; target = env (Human immunodeficiency virus 1, UniProt Q2N0S5); assay = HIV-1 infection; system = Cf2Th-CD4/CCR5 cells; setting = 48 h; IC50 = 60300 nM
SMILES = COc1cc(N2CCOCC2)ccc1Nc1ncc(Cl)c(Nc2ccccc2NS(C)(=O)=O)n1; target = EGFR (Homo sapiens, UniProt P00533); assay = cell-free assay; IC50 = 21.2 nM
SMILES = O=C(Oc1cccc(CSc2ncccn2)c1)c1ccc([N+](=O)[O-])cc1; target = Apelin receptor (APLNR, Homo sapiens, UniProt P35414); assay = β-arrestin recruitment, antagonist; IC50 = 1200 nM
SMILES = COc1cc(F)c(-c2cc(Cn3cnc4c(N)ncnc43)c(N3CCC[C@](N)([C@H](O)C(F)F)C3)cn2)cc1F; target = SUV39H2 (Homo sapiens, UniProt Q9H5I1); assay = enzyme activity, inhibitor; setting = single data points; IC50 = 5930 nM
SMILES = CC(C)=CCC1CC(CC=C(C)C)C2(C)CCC(C(C)(C)O)C(=O)C2(C(=O)C(C)C)C1=O (centres unmarked); target = Beta-secretase 1 (Mus musculus, UniProt P56818); assay = enzyme activity in cells, inhibitor; IC50 = 9550 nM
SMILES = Cc1ccc(NS(=O)(=O)c2c(C)[nH]c(C)c2C(=O)N2CCCC2)cc1F; target = DRD3; assay = β-arrestin recruitment, antagonist; IC50 = 23000 nM
SMILES = Cc1cnc(Nc2ccc(C3CCN(C)CC3)c(F)c2)nc1Nc1ccc(Cl)c(NS(=O)(=O)C(C)(C)C)c1; target = ULK2 (Homo sapiens, UniProt Q8IYT8); assay = enzyme activity, inhibitor; IC50 = 3060 nM
SMILES = CSc1nc2cc(Cl)c(Oc3cccc(Cl)c3Cl)cc2[nH]1; target = ALDH1B1 (Homo sapiens, UniProt P30837); assay = enzyme activity, inhibitor; IC50 = 2130 nM
SMILES = C[C@@H](OCCCCCN1C[C@H](O)[C@@H](O)[C@H](O)[C@H]1CO)c1ccc(-c2ccccc2)cc1; target = Ugcg; assay = enzyme activity, inhibitor, fluorescence; IC50 = 60 nM
SMILES = CCn1nc(Cl)c2c1-c1cnc(N)c(c1)O[C@H](C)c1cc(F)ccc1-c1nn(C)cc1C2; target = ALK (Homo sapiens, UniProt Q9UM73, G1269A); assay = enzyme activity, inhibitor; setting = added: 1 mM ATP; IC50 = 16 nM
SMILES = COc1cc(NC(=O)c2cnn(-c3ccc([N+](=O)[O-])cc3)c2C(F)(F)F)c(OC)cc1Cl; target = PTGS2 (Homo sapiens, UniProt P35354); assay = enzyme activity, inhibitor; IC50 = 3820 nM
SMILES = OC[C@H]1[C@@H](O)[C@H](O)[C@@H](O)CN1CCCCCOCC(COCCCCCN1C[C@H](O)[C@@H](O)[C@H](O)[C@@H]1CO)C12CC3CC(CC(C3)C1)C2 (some centres unmarked); target = Ugcg; assay = enzyme activity, inhibitor, fluorescence; IC50 = 10000 nM
SMILES = Cc1nn(-c2cccc(N)c2)c(=O)c2cnc(Nc3ccc(N4CCNCC4)cc3)nc12; target = NTRK2 (Homo sapiens, UniProt Q16620); assay = enzyme activity, inhibitor; IC50 = > 10000 nM
SMILES = CCOC(=O)C[C@@H](C#N)NC(=O)[C@@H]1CCCN1C(=O)[C@@H](NC(=O)c1ccc(N)c(Cl)c1)C(C)(C)C; target = Caspase-9 (CASP9, Homo sapiens, UniProt P55211); assay = enzyme activity, inhibitor; IC50 = 1010 nM
SMILES = C[C@@H](OC(=O)c1cc2cc[nH]c(=O)c2s1)C(=O)NC(c1ccccc1)c1ccccc1; target = PLA2G4A (Homo sapiens, UniProt P47712); assay = enzyme activity, inhibitor, fluorescence; IC50 = 5350 nM
SMILES = CCCCCN1C[C@H](O)[C@@H](O)[C@H](O)[C@@H]1CO; target = Ugcg; assay = enzyme activity, inhibitor, fluorescence; IC50 = 15000 nM
SMILES = Cc1ccc(Nc2cc(NC3CC3)n3ncc(C#N)c3n2)cc1NC(=O)C1CC1; target = CSNK2A2 (Homo sapiens, UniProt P19784); assay = inhibitor; IC50 = 120 nM
SMILES = OC[C@H]1[C@@H](O)[C@H](O)[C@@H](O)CN1CCCCCOCc1ccc(-c2ccccc2)cc1F; target = Ugcg; assay = enzyme activity, inhibitor, fluorescence; IC50 = 5 nM
SMILES = CCN(CC)CC(=O)Nc1cccc(-n2cc(-c3ccc4ccc(-c5cn(-c6cccc(NC(=O)CN(CC)CC)c6)nn5)cc4c3)nn2)c1; target = PKN1 (Homo sapiens, UniProt Q16512); assay = enzyme activity, inhibitor; IC50 = > 10000 nM
SMILES = CCCCCCCCCOCCCCCN1C[C@H](O)[C@@H](O)[C@H](O)[C@H]1CO; target = Ugcg; assay = enzyme activity, inhibitor, fluorescence; IC50 = 100 nM
SMILES = Cc1ccc(N=C2CC(=O)c3sc(C)nc3C2=O)cc1; target = PRMT3 (Homo sapiens, UniProt O60678); assay = enzyme activity, inhibitor; IC50 = 1800 nM
SMILES = Nc1ncc2c(n1)-c1c([nH]c3ccc(C4=CCOCC4)cc13)CCC2; target = CLK2 (Homo sapiens, UniProt P49760); assay = target engagement in cells, BRET; IC50 = 3200 nM
SMILES = CN1CCN(CCCNC(=O)c2cc3c(-c4ccc(Cl)cc4)nn(C)c3s2)CC1; target = RAD52; assay = ssDNA annealing, fluorescence quenching; IC50 = 2000 nM
SMILES = O=C(Cc1ccc(OCc2ccccc2)cc1)NC1(C(=O)O)CCN(C(=O)c2ccc(-c3cccc(Cl)c3)cc2)CC1; target = Probable G-protein coupled receptor 174 (Homo sapiens, UniProt Q9BXC1); assay = TGF-alpha shedding, antagonist; IC50 = > 10000 nM
SMILES = CC(C)CCC[C@@H](C)[C@H]1CC[C@H]2[C@@H]3CC=C4C[C@@H](OCCCCCN5C[C@H](O)[C@@H](O)[C@H](O)[C@@H]5CO)CC[C@]4(C)[C@H]3CC[C@]12C; target = Ugcg; assay = enzyme activity, inhibitor, fluorescence; IC50 = 1000 nM
SMILES = Cn1c(S)nnc1-c1ccc(F)cc1; target = CUGBP Elav-like family member 2, residues 40-212 (Homo sapiens, UniProt O95319); assay = protein-RNA binding, inhibitor, fluorescence polarization; setting = 200 nM protein, added: 10 nM RNA; IC50 = 1760 ± 260 nM
SMILES = Fc1ccc(Nc2nc(NC3CCCCC3)c3cc(C(F)(F)F)ccc3n2)cc1F; target = ADRB2 (Homo sapiens, UniProt P07550, L155C); assay = β-arrestin2 recruitment, antagonist, BRET; system = HEK293; setting = mutant L155C, added: isoprenaline 1 µM; IC50 = 631 nM
SMILES = COc1ccc(Nc2cc(NC3CC3)n3ncc(C#N)c3n2)cc1; target = CHEK2 (Homo sapiens, UniProt O96017); assay = inhibitor; IC50 = > 10000 nM
SMILES = C=CC(=O)Nc1cc(Nc2ncnc(Nc3ccc(F)c(Cl)c3)n2)c(OC)cc1N(C)CCN(C)C; target = EGFR (Homo sapiens, UniProt P00533, L858R/T790M); assay = enzyme activity, inhibitor; IC50 = 2 nM
SMILES = Fc1ccc(Nc2nc(NC3CCCCC3)c3cc(Br)ccc3n2)cc1F; target = ADRB2 (Homo sapiens, UniProt P07550); assay = β-arrestin recruitment, antagonist; IC50 = 31 nM
SMILES = Cc1cc(N2CCN(C)CC2)nc2ccc(NC(=S)NCCCN3CCN(C)CC3)cc12; target = RAD52; assay = ssDNA annealing, fluorescence quenching; IC50 = 3600 nM
SMILES = COCC1CN(C2CCN(c3cc(OC)c(Nc4ncc(Br)c(Nc5ccc6c(c5P(C)(C)=O)OCCO6)n4)cc3C)CC2)C1; target = EGFR (Homo sapiens, UniProt P00533, C797S/del746-750); assay = kinase activity, TR-FRET; setting = added: ATP at Km; IC50 = 1.23 nM
SMILES = Cc1[nH]c(C)c(S(=O)(=O)Nc2cccc(Cl)c2)c1C(=O)N1CCCC1; target = DRD3; assay = Go activation, antagonist, BRET; setting = added: dopamine; IC50 = 9400 ± 600 nM
SMILES = O=C(CCCCCN1C[C@H](O)[C@@H](O)[C@H](O)[C@@H]1CO)NC12CC3CC(CC(C3)C1)C2; target = Ugcg; assay = enzyme activity, inhibitor, fluorescence; IC50 = 400 nM
SMILES = Cc1cc(C)c(S(=O)(=O)N(CC(=O)O)c2ccc(Nc3ccnc(N4CCCC4)n3)cc2)c(C)c1; target = Aurora kinase A (AURKA, Homo sapiens, UniProt O14965); assay = enzyme activity, inhibitor; IC50 = > 100000 nM
SMILES = CCN(CC)CCCN(Cc1cc2cc3c(cc2[nH]c1=O)OCO3)C(=S)NCCCN(C)C; target = RAD52; assay = ssDNA annealing, fluorescence quenching; IC50 = 5200 nM
SMILES = CCCCOCCCCCN1C[C@H](O)[C@@H](O)[C@H](O)[C@@H]1CO; target = Ugcg; assay = enzyme activity, inhibitor, fluorescence; IC50 = 2000 nM
